# Measured values collected from several papers.
# Parts stem from different laboratories: compare values within a part only. “And” joins repeats or separate records; there may be more than shown.
# Chain of UniProt Q16853 (whole entry, looked up): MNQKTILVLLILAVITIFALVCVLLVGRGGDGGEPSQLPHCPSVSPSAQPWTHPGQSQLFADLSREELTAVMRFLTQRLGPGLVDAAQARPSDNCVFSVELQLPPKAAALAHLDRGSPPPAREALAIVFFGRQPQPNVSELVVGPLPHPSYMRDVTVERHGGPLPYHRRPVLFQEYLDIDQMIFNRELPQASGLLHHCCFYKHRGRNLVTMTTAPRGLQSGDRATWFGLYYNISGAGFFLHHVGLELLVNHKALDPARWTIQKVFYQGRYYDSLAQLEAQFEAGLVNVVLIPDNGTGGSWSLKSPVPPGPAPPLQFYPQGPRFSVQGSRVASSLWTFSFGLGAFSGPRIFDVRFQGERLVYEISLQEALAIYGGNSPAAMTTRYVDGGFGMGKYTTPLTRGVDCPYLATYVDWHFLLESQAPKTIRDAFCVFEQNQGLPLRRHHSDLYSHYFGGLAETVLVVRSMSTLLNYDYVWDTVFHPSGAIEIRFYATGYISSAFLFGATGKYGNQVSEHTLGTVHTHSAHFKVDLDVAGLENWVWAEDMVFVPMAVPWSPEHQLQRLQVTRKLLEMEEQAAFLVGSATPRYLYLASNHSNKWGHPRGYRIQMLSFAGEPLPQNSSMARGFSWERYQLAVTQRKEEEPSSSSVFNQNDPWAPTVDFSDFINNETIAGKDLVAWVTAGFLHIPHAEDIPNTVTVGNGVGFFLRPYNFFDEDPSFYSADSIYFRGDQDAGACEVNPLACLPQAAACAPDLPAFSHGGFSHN

# Study 1
# SMILES: Cn1ncc2c1N(CCCCNC/C=C/C#N)c1cc(Cl)ccc1CC2.O=C(O)/C=C\C(=O)O
# Cell line: NCI-H292
# Method: CellTiter-Glo
# Time: 72 h
# Direction: higher = more viable cells
concentration,luminescence
0.05 µM,4.28e+06 a.u. and 4.26e+06 a.u. and 3.8e+06 a.u.
0.5 µM,4.04e+06 a.u. and 3.72e+06 a.u. and 4.1e+06 a.u.
5 µM,987000 a.u. and 899000 a.u. and 971000 a.u.
0.005 µM,4.2e+06 a.u. and 4.09e+06 a.u. and 4.14e+06 a.u.
50 µM,57600 a.u. and 55900 a.u. and 46300 a.u.

# Study 2
# Organism: Leishmania donovani
# Read-out: parasite growth
# Cell line: THP-1
# Setting: intracellular, amastigote
Structure (SMILES),IC50 [µM]
Cc1ccc(Nc2c3c(nc4ccccc24)CCC3)cc1,4.58
Clc1ccc2nc3c(c(Nc4ccc5c(c4)OCCO5)c2c1)CCC3,9.47
Fc1cccc(Nc2c3c(nc4ccccc24)CCC3)c1,5.46
Clc1ccc2nc3c(c(Nc4ccc(Oc5ccccc5)cc4)c2c1)CCC3,6.82
COc1ccc(Nc2c3c(nc4ccccc24)CCC3)cc1,4.87
Fc1ccc(Nc2c3c(nc4ccccc24)CCC3)cc1,4.5
CC(=O)c1cccc(Nc2c3c(nc4ccccc24)CCC3)c1,8.54

# Study 3
# Organism: Arabidopsis thaliana
# Strain: Col-0
# Concentration: 100 µg/mL
# Setting: seed germination, single repetition
Compound,hypocotyl length
O=C(O)C1(O)Oc2ccccc2N(Cc2ccccc2)C1=O (centres unmarked),1.35 cm and 1.33 cm and 1.32 cm and 1.31 cm
O=C(O)C1(O)Oc2cc(Cl)ccc2N(Cc2ccccc2)C1=O (centres unmarked),1.26 cm and 1.23 cm and 1.25 cm and 1.22 cm
CC(C)(C)c1ccc(Oc2ccc3c(c2)OC(O)(C(=O)O)C(=O)N3Cc2ccccc2)cc1 (centres unmarked),1.25 cm and 1.27 cm and 1.22 cm and 1.23 cm
CN1C(=O)C(O)(C(=O)O)Oc2cc(F)ccc21 (centres unmarked),1.35 cm and 1.34 cm and 1.31 cm and 1.33 cm
Cc1ccc2c(c1)OC(O)(C(=O)O)C(=O)N2Cc1ccccc1 (centres unmarked),1.02 cm and 1.05 cm and 1.17 cm and 1.16 cm

# Study 4
# SMILES: C[C@@H]1CN(c2ccc(-c3cc(C(=O)NCCOCCOCCOCCOCCNC(=O)Cn4cc(-c5[nH]cc(C(=O)N[C@@H](CC(N)=O)c6ccc(F)c(Cl)c6)c5-c5ccc(Cl)cc5F)cn4)ccc3F)cc2NC(=O)c2c[nH]c(=O)cc2C(F)(F)F)C[C@H](C)N1C
# Read-out: thermal unfolding
# Method: differential scanning fluorimetry
# Concentration: 5.5 µM
# Direction: higher = more unfolded
# DCAF1: DDB1- and CUL4-associated factor 1 (DCAF1, Homo sapiens, UniProt Q9Y4B6)
# Chain of UniProt Q9Y4B6 (whole entry, looked up): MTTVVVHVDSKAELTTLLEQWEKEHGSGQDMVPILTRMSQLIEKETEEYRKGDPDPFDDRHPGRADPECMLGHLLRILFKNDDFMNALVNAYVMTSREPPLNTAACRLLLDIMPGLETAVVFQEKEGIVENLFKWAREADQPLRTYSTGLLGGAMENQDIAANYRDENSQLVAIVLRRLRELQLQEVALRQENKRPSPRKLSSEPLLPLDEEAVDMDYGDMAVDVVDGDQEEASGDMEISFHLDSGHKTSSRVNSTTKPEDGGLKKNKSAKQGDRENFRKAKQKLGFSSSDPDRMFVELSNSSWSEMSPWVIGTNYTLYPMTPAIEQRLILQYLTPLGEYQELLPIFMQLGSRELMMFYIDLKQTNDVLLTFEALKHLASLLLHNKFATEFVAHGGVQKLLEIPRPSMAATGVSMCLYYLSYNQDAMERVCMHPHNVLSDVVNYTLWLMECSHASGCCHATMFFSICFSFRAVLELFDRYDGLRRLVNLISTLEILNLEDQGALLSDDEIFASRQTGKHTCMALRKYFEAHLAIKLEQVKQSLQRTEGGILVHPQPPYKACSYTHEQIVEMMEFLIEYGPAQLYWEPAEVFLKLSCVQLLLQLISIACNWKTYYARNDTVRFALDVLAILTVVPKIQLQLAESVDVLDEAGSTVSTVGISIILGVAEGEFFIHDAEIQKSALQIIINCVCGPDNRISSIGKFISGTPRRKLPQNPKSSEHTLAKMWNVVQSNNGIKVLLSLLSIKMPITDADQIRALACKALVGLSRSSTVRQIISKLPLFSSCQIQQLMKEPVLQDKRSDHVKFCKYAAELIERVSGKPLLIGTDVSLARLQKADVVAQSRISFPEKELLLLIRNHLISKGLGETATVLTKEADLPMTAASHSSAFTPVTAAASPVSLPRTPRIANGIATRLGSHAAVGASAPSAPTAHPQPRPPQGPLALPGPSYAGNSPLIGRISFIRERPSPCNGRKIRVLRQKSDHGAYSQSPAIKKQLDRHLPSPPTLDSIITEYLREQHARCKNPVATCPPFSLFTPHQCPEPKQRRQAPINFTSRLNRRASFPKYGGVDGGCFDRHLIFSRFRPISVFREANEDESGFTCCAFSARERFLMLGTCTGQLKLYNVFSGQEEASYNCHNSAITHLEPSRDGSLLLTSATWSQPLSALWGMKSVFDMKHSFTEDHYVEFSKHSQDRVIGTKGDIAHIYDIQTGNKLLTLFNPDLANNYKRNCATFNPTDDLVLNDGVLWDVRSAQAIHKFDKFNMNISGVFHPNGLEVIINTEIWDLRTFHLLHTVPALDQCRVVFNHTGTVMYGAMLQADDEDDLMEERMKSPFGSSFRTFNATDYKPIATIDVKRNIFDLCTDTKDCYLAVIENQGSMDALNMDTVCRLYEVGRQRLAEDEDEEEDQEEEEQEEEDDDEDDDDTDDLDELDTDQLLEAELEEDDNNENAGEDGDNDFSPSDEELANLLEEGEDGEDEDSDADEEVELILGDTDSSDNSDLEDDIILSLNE
# WDR5: WD repeat-containing protein 5 (WDR5, Homo sapiens, UniProt P61964)
target,temperature,SYPRO Orange fluorescence
DCAF1,89.61 °C,35500 a.u.
DCAF1,30.8 °C,8320 a.u.
WDR5,35.8 °C,14300 a.u.
WDR5,28.8 °C,14800 a.u.
DCAF1,60.01 °C,37900 a.u.
WDR5,83.01 °C,33500 a.u.
WDR5,70.61 °C,7070 a.u.
WDR5,66.61 °C,7140 a.u.
WDR5,62.01 °C,9250 a.u.
DCAF1,94.41 °C,30500 a.u.
WDR5,33.6 °C,14400 a.u.

# Study 5
# SMILES: Cc1ncsc1-c1ccc(C(CO)NC(=O)C2CC(O)CN2C(=O)C(C(C)C)n2cc(-c3ccc(COc4c(-c5c(C)c(F)cc6[nH]ncc56)c(C5CC5)cc5c(N6CC7CC6CN7)nc(OC6CCOCC6)nc45)cc3)nn2)cc1 (centres unmarked)
# Method: qRT-PCR
# Host: mouse, PK-59 xenograft
# Sample: tumour
# Setting: unit not given
item,route,dose,time,reference,mRNA level
DUSP4,,10 mg/kg,48 h,vehicle,0.296 and 0.215 and 0.308
DUSP6,intravenous,30 mg/kg,2 h,"vehicle, same time point",0.129 and 0.104 and 0.0714
ETV4,intravenous,30 mg/kg,6 h,"vehicle, same time point",0.0137 and 0.0117 and 0.00758
DUSP6,,30 mg/kg,2 h,vehicle,0.502 and 0.278 and 0.405
MYC,,10 mg/kg,48 h,vehicle,0.508 and 0.545 and 0.536
DUSP6,,10 mg/kg,24 h,vehicle,0.0808 and 0.066 and 0.081 and 0.0656 and 0.0933 and 0.093
ETV4,,10 mg/kg,2 h,vehicle,1.23 and 1.31 and 0.691
DUSP6,intravenous,10 mg/kg,144 h,"vehicle, same time point",0.159 and 0.125 and 0.219
DUSP4,intravenous,10 mg/kg,48 h,"vehicle, same time point",0.132 and 0.0922 and 0.127

# Study 6
# Target: Membrane-associated tyrosine- and threonine-specific cdc2-inhibitory kinase (PKMYT1, Homo sapiens, UniProt Q99640)
# Read-out: cell-free assay
# Method: TR-FRET
# Target sequence (Q99640 1-499): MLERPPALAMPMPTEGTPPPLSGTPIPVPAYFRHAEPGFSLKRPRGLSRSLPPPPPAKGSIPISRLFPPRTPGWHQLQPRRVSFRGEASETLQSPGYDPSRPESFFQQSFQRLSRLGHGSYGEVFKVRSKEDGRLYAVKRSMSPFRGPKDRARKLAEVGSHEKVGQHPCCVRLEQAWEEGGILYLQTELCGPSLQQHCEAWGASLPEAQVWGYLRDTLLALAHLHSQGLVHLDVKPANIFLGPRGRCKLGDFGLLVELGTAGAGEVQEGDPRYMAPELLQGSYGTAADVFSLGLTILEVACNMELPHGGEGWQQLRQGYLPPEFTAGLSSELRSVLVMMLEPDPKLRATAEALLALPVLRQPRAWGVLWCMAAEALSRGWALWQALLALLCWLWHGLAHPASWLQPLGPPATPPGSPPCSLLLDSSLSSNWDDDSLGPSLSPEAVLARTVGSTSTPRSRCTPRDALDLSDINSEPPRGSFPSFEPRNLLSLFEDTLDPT
SMILES,IC50 [µM]
Cc1ccc(O)c(C)c1-c1cnc2[nH]c(-c3cnc(N4CCC(CN5CCC(c6ccc(NC7CCC(=O)NC7=O)cc6F)CC5)CC4)nc3)cc2c1C#N (centres unmarked),0.0052
Cc1ccc(O)c(C)c1-c1cnc2[nH]c(-c3cnc(N4CCC5(CC4)CC(N4CCN(c6ccc(NC7CCC(=O)NC7=O)cc6F)CC4)CO5)nc3)cc2c1C#N (centres unmarked),0.0044
Cc1ccc(O)c(C)c1-c1cnc2[nH]c(-c3cnc(N4CCC(CN5CCN(c6cc7c(cc6F)n(C6CCC(=O)NC6=O)c(=O)n7C)CC5)CC4)nc3)cc2c1C#N (centres unmarked),0.0035
Cc1ccc(O)c(C)c1-c1cnc2[nH]c(-c3cnc(N4CC5(CC(CN6CCN(c7ccc(NC8CCC(=O)NC8=O)cc7F)CC6)C5)C4)nc3)cc2c1C#N (centres unmarked),0.0026
Cc1ccc(O)c(C)c1-c1cnc2[nH]c(-c3cnc(N4CCC(CN5CCN(c6ccc(NC7CCC(=O)NC7=O)cc6F)CC5)CC4)nc3)cc2c1C#N (centres unmarked),0.0044

# Study 7
# Structure (SMILES): CC[C@@]1(c2cccc(-c3c(F)cncc3OC)c2)C2=C(Nc3n[nH]cc31)[C@H](F)C(C)(C)CC2=O (single isomer, unassigned)
# Concentration: 1 µM
target,read-out,method,reference,remaining binding [%]
"Cyclin-dependent kinase 16 (CDK16, Homo sapiens, UniProt Q00536)",kinase binding,KINOMEscan,DMSO control,5.6
"Receptor tyrosine-protein kinase erbB-2 (ERBB2, Homo sapiens, UniProt P04626)",kinase binding,KINOMEscan,DMSO control,67
"Ephrin type-A receptor 8 (EPHA8, Homo sapiens, UniProt P29322)",kinase binding,KINOMEscan,DMSO control,78
"Myosin light chain kinase 2, skeletal/cardiac muscle (MYLK2, Homo sapiens, UniProt Q9H1R3)",binding,competition with immobilised ligand,,84
"Mast/stem cell growth factor receptor Kit, autoinhibited (KIT, Homo sapiens, UniProt P10721)",binding,competition with immobilised ligand,,72
"Serine/threonine-protein kinase LATS2 (LATS2, Homo sapiens, UniProt Q9NRM7)",binding,competition with immobilised ligand,,79
"RAC-alpha serine/threonine-protein kinase (AKT1, Homo sapiens, UniProt P31749)",kinase binding,KINOMEscan,DMSO control,90
"Uncharacterized serine/threonine-protein kinase SBK3 (SBK3, Homo sapiens, UniProt P0C264)",kinase binding,KINOMEscan,DMSO control,100
"Tyrosine-protein kinase ITK/TSK (ITK, Homo sapiens, UniProt Q08881)",kinase binding,KINOMEscan,DMSO control,79
"Calcium/calmodulin-dependent protein kinase type 1G (CAMK1G, Homo sapiens, UniProt Q96NX5)",kinase binding,KINOMEscan,DMSO control,92
"Myosin light chain kinase, smooth muscle (MYLK, Homo sapiens, UniProt Q15746)",kinase binding,KINOMEscan,DMSO control,92
"NUAK family SNF1-like kinase 2 (NUAK2, Homo sapiens, UniProt Q9H093)",kinase binding,KINOMEscan,DMSO control,66
"TGF-beta receptor type-1 (TGFBR1, Homo sapiens, UniProt P36897)",kinase binding,KINOMEscan,DMSO control,97

# Study 8
# SMILES: CCN1/C(=C/C=C2\CCCC(/C=C/C3=[N+](CC)c4ccccc4C3(C)C)=C2NCCCCCCCCN2CCC(Nc3nc4ccccc4n3Cc3ccc(F)cc3)CC2)C(C)(C)c2ccccc21
# Cell line: U-87 MG
# Concentration: concentration not given
# Reference: DMSO
item,log2 fold change
WAC mRNA,0.807
BUB1B-PAK6 mRNA,-4.92
RIOK3 mRNA,0.895
TRIM59 mRNA,-1.05
TUBB3 mRNA,-2.42
DIRAS1 mRNA,1.44
CREBRF mRNA,2
MAP1LC3B2 mRNA,2.09
ARFGAP3 mRNA,0.835

# Study 9
# SMILES: NC/C(=C\F)COc1cc(Cn2c(=S)[nH]c(=O)c3[nH]cnc32)cc(C(F)(F)F)c1
# MPO: Myeloperoxidase (MPO, Homo sapiens, UniProt P05164)
# Chain of UniProt P05164 (whole entry, looked up): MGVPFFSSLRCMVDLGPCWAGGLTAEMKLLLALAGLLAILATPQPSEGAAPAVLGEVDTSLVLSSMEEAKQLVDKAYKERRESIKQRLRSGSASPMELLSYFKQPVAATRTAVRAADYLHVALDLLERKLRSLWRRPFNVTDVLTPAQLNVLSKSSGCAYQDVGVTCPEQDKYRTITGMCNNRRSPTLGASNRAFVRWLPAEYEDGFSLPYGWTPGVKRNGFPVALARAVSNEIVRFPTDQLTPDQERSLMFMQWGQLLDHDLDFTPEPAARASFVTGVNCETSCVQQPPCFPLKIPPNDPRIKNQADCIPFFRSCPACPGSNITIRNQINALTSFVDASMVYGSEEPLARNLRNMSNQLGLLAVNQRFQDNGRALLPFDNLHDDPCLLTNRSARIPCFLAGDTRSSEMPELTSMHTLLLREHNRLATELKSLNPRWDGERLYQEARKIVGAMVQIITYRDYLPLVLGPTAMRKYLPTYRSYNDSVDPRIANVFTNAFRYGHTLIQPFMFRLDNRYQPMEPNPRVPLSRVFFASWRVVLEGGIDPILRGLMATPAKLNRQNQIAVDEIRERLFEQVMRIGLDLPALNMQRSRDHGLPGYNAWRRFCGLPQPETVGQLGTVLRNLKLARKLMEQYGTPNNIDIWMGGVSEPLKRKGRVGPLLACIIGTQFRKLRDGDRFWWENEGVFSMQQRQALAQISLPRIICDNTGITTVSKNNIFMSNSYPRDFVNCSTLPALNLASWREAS
target,read-out,action,method,concentration,inhibition
MPO,enzyme activity,inhibitor,fluorescence,1.5 nM,2.21%
MPO,enzyme activity,inhibitor,fluorescence,0.5556 µM,100%
MPO,enzyme activity,inhibitor,fluorescence,0.1235 µM,94.3%
MPO,enzyme activity,inhibitor,fluorescence,61.7 nM,93%
MPO,,,Amplex Red,0.0206 µM,73.9%
"Amine oxidase [copper-containing] 3 (AOC3, Homo sapiens, UniProt Q16853)",enzyme activity,inhibitor,fluorescence,1.5 nM,-8.95% and -3.2% and -2.18% and -3.52%

# Single results of other studies
# SLC6A19: Sodium-dependent neutral amino acid transporter B(0)AT1 (SLC6A19, Homo sapiens, UniProt Q695T7)
# Chain of UniProt Q695T7 (whole entry, looked up): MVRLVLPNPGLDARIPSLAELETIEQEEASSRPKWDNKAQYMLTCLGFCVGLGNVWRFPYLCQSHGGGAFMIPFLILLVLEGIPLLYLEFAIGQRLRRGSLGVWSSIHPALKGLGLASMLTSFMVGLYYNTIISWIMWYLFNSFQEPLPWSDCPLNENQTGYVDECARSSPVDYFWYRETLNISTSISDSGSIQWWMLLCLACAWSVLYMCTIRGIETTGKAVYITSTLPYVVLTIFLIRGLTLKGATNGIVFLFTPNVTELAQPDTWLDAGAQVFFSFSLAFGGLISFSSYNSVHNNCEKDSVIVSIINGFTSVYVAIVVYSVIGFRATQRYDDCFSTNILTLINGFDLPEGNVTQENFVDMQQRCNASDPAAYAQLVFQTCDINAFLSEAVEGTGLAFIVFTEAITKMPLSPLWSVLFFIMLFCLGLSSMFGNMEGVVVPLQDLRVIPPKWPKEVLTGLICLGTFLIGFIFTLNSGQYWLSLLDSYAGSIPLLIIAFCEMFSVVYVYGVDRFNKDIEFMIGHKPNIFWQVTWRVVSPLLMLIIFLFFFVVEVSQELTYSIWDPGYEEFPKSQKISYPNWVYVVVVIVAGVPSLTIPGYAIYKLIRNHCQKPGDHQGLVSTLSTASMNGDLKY
Structure (SMILES),tested on,test,test system,conditions,how to read,quantity,result
Cc1nc(C)c(C=[N+]([O-])C(C)(C)C)nc1C,,HPLC-ECD,"MPTP mouse model, striatum",10 mg/kg,,striatal dopamine content,4.48 ng/mg tissue and 4.47 ng/mg tissue and 4.8 ng/mg tissue and 3.93 ng/mg tissue and 5.41 ng/mg tissue and 5.28 ng/mg tissue and 4.46 ng/mg tissue
CCn1cnc2c(NCc3nc4cc(F)c(F)cc4[nH]3)nc(N3CCn4ncnc4C3)nc21,MDA-MB-231,"cell viability, CellCounting-Lite",,"0.3048 nM, 37 °C",higher = more viable cells,luminescence signal,512000 a.u. and 453000 a.u. and 477000 a.u.
CCCCNC(=O)COc1cc(C)c(Cl)c(C)c1,SLC6A19,"inhibitor, FLIPR membrane potential",CHO-BC cells,30 µM,,normalised transport activity,1.03
CCn1cnc2c(NCc3nc4ccc(F)c(F)c4[nH]3)nc(N3CCn4ncnc4C3)nc21,MDA-MB-468,cell growth or viability,,5 days,,EC50,0.0485 µM
CCNC(=O)COc1cc(C)c(Cl)c(C)c1,SLC6A19,"inhibitor, L-[14C]leucine uptake",CHO-BC cells,"0.3 µM, 6 min, unit not given, together with: GPNA 3 mM, JPH203 3 µM",reference: uninhibited cells,remaining transport activity,0.633
CCn1cnc2c(NCc3nc4cc(Cl)c(Cl)cc4[nH]3)nc(N3CCN(C(=O)c4ccccn4)CC3)nc21,MDA-MB-231,"cell viability, CellCounting-Lite",,"24.69 nM, 37 °C",higher = more viable cells,luminescence signal,150000 a.u. and 178000 a.u. and 154000 a.u.
CCNC(=O)COc1ccc(I)c(C)c1,SLC6A19,"inhibitor, FLIPR membrane potential",CHO-BC cells,"0.03 µM, unit not given",reference: uninhibited cells,remaining transport activity,0.572
COc1cc(C(=O)OCCCN2CCCN(CCCOC(=O)c3cc(OC)c(OC)c(OCc4ccc([N+](=O)[O-])cc4)c3)CC2)cc(OC)c1OC,,,"naive mice, mixed sexes","intrathecal, 100 nmol, before dosing",,rotarod fall latency,61 s and 83 s and 78 s and 65 s and 70 s and 73 s
CC(C)NC(=O)COc1ccc(I)cc1,SLC6A19,"inhibitor, FLIPR membrane potential",CHO-BC cells,"0.003 µM, unit not given",reference: no inhibitor,remaining transport activity,1.01
COCC1CC2C(CCC3(C)C(O)CCC23)c2ccc(O)cc21 (centres unmarked),SK-OV-3,"DNA microarray, item: KIF20A",,concentration not given,reference: untreated control,expression ratio,0.862 and 0.914 and 0.922 and 0.872 and 0.912
